# Measured values collected from several papers.
# Every numbered part comes from another study and shows a few of its results, in no order. “And” joins repeats or separate records; there may be more than shown.
# Chain of UniProt O94804 (whole entry, looked up): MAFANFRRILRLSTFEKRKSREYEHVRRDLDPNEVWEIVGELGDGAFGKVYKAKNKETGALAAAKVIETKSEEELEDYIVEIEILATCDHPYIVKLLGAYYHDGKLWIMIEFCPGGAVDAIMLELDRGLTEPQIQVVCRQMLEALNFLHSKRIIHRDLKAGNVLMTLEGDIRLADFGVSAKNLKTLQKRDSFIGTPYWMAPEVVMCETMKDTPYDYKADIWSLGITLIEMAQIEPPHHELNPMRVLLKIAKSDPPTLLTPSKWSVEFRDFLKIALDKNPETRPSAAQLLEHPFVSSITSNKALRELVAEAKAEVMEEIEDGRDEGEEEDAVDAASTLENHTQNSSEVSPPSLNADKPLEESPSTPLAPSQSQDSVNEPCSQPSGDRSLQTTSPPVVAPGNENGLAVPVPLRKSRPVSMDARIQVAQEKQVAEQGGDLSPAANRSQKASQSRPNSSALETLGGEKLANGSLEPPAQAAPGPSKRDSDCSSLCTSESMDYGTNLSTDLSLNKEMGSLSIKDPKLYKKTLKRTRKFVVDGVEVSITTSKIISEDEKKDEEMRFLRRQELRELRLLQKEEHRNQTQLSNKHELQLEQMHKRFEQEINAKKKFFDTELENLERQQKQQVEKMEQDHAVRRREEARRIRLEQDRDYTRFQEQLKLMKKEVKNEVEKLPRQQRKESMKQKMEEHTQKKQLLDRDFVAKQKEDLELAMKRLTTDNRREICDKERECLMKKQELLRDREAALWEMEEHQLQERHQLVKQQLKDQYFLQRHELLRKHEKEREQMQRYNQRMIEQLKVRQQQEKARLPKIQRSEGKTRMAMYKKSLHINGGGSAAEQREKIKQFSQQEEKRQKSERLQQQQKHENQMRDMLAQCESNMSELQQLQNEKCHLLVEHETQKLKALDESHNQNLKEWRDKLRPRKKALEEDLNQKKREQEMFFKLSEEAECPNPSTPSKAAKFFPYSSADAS
# Chain of UniProt P11802 (whole entry, looked up): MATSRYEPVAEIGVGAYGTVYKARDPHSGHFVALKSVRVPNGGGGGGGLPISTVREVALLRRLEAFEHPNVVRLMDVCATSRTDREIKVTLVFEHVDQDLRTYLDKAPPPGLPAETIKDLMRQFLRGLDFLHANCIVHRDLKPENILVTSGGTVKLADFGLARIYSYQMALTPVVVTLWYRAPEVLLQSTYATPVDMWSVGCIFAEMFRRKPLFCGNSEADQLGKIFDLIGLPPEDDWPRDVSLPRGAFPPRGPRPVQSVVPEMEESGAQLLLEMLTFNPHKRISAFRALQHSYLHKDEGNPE
# Chain of UniProt Q9UL54 (whole entry, looked up): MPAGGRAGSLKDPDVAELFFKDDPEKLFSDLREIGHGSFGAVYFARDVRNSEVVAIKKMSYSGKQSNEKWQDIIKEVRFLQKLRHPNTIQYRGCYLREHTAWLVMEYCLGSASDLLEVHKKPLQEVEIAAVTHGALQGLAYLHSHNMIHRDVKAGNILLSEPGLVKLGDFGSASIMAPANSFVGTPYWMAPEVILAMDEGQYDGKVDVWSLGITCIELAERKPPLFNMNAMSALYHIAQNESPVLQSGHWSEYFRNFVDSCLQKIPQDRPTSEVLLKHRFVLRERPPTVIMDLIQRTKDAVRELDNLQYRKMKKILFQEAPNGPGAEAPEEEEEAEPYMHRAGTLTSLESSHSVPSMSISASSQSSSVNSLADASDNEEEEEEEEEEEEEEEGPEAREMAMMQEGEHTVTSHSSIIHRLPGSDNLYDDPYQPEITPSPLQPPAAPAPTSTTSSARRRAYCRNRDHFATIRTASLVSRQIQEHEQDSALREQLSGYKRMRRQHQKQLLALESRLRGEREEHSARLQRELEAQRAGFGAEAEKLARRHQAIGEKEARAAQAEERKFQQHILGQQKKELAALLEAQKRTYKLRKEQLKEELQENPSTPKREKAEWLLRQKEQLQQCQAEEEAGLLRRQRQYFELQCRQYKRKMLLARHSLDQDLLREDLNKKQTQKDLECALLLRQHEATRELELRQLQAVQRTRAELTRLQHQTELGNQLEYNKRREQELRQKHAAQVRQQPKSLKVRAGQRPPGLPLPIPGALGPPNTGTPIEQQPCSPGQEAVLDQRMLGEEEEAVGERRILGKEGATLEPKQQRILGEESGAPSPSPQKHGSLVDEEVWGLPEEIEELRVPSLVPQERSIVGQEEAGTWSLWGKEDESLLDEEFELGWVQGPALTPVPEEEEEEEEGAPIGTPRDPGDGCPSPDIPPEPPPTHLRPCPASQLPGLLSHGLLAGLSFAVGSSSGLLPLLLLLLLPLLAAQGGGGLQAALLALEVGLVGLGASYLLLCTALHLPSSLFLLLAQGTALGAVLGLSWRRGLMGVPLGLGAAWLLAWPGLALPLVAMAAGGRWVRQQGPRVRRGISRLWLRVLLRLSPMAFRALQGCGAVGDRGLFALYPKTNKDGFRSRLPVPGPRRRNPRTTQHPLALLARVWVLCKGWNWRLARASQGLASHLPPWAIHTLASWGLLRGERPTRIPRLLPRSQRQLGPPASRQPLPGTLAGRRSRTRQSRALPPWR
# Chain of UniProt O75676 (whole entry, looked up): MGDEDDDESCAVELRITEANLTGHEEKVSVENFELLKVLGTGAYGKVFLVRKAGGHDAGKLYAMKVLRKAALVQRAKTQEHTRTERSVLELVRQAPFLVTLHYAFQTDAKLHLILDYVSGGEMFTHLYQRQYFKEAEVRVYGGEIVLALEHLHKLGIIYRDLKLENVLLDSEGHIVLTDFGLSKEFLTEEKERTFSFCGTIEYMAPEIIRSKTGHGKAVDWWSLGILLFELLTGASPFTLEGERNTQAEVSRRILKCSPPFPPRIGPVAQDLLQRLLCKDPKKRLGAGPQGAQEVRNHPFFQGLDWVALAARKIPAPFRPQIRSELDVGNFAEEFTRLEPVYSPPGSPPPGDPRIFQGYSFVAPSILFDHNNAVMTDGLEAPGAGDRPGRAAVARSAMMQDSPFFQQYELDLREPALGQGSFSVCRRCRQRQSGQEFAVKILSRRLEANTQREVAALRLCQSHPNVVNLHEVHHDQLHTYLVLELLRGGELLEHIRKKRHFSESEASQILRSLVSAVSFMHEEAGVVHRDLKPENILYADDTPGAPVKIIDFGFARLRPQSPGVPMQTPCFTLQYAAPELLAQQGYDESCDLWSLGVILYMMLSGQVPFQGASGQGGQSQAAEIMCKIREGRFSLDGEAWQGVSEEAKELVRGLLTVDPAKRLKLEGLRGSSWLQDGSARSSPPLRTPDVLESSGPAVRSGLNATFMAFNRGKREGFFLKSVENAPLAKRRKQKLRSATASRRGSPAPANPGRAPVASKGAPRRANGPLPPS
# Chain of UniProt P35348 (whole entry, looked up): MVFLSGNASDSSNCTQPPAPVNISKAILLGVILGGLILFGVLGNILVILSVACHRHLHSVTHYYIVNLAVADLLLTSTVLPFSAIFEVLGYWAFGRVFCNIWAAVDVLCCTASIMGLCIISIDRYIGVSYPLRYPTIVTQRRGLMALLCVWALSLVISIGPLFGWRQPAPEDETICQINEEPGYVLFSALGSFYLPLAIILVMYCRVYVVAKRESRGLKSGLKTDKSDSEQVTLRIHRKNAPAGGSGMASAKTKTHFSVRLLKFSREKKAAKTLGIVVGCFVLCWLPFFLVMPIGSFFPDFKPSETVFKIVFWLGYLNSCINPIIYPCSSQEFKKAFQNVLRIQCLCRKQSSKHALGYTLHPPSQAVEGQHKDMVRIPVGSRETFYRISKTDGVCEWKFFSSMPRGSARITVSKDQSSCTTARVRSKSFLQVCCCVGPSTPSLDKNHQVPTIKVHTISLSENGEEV
# Chain of UniProt Q9BXC1 (whole entry, looked up): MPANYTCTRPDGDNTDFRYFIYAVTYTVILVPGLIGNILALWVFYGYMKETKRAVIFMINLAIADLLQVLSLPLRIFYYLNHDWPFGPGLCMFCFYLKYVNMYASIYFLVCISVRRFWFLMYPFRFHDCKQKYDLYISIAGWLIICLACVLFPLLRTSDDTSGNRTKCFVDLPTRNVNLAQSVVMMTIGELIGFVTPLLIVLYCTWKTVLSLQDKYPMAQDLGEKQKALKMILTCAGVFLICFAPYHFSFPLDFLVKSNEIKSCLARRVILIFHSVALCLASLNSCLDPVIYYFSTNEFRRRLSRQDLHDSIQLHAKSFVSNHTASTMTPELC
# Chain of UniProt P10721 (whole entry, looked up): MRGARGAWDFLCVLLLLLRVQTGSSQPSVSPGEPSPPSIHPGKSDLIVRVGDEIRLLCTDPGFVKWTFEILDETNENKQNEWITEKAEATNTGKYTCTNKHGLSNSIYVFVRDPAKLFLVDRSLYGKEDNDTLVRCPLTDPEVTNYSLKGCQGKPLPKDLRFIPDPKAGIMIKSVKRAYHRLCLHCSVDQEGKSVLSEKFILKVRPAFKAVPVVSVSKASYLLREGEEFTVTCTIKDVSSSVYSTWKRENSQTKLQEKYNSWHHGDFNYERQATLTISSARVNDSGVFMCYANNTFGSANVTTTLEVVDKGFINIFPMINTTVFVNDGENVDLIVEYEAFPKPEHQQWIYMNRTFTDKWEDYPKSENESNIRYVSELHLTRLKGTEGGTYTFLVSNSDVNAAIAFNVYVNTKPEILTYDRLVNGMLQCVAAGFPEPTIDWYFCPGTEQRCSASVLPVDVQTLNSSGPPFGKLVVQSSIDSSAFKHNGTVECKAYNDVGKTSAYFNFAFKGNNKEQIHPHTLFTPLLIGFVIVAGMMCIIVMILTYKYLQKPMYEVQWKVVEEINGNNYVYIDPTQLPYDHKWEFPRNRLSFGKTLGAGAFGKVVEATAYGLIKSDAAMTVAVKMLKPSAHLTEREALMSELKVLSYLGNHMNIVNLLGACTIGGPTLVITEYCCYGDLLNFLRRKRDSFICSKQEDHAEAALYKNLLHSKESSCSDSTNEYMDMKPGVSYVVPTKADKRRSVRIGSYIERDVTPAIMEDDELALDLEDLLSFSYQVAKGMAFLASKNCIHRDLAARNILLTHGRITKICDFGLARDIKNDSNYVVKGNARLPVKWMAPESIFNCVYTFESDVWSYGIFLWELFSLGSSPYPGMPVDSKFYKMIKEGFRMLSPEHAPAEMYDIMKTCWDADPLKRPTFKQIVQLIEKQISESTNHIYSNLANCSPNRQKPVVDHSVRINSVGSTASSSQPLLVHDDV

# Block 1
# Compound: C[C@H](c1ccnc(Nc2nc3ccc(-c4cc(N(C)C)ncn4)cc3[nH]2)c1)N1CCN(C(=O)CC(F)(F)F)CC1
# Technique: competition with immobilised ligand
# Concentration: 0.1 µM
target,assay,remaining binding [%]
"Mast/stem cell growth factor receptor Kit, autoinhibited (KIT, Homo sapiens, UniProt P10721)",cell-free assay,100
"Tyrosine-protein kinase ABL1, non-phosphorylated (ABL1, Homo sapiens, UniProt P00519, H396P)",cell-free assay,79
"PRPF4B (Homo sapiens, UniProt Q13523)",cell-free assay,80
"MAP3K1 (Homo sapiens, UniProt Q13233)",cell-free assay,100
"STK10 (Homo sapiens, UniProt O94804)",cell-free assay,86
"CDK13 (Homo sapiens, UniProt Q14004)",cell-free assay,100
"MAPK13 (Homo sapiens, UniProt O15264)",cell-free assay,80
"Cyclin-dependent kinase 4, with cyclin D1 (CDK4, Homo sapiens, UniProt P11802)",cell-free assay,100
"MAP4K3 (Homo sapiens, UniProt Q8IVH8)",cell-free assay,100
"Ribosomal protein S6 kinase alpha-4, N-terminal kinase domain (RPS6KA4, Homo sapiens, UniProt O75676)",cell-free assay,100
"DYRK1A (Homo sapiens, UniProt Q13627)",cell-free assay,98
"CILK1 (Homo sapiens, UniProt Q9UPZ9)",binding,88
"MAP3K14 (Homo sapiens, UniProt Q99558)",cell-free assay,100
"CDK4 (Homo sapiens, UniProt P11802)",cell-free assay,100
"WNK2 (Homo sapiens, UniProt Q9Y3S1)",cell-free assay,92
"TAOK2 (Homo sapiens, UniProt Q9UL54)",cell-free assay,100

# Block 2
# SMILES: CCN(c1nc(N)c(C(=O)N=C(N)N)nc1Cl)C(C)C
# Effect on: β-arrestin recruitment
# Mode: agonist
# Technique: PRESTO-Tango
# Concentration: 10 µM
# Baseline: untreated
target,fold over basal
"FFAR1 (Homo sapiens, UniProt O14842)",1.12 fold
"SSTR5 (Homo sapiens, UniProt P35346)",0.52 fold
"TSHR (Homo sapiens, UniProt P16473)",1.07 fold
"Trace amine-associated receptor 2 (TAAR2, Homo sapiens, UniProt Q9P1P5)",0.68 fold
"Probable G-protein coupled receptor 150 (GPR150, Homo sapiens, UniProt Q8NGU9)",1.54
"Probable G-protein coupled receptor 174 (Homo sapiens, UniProt Q9BXC1)",0.85
"G-protein coupled receptor 83 (GPR83, Homo sapiens, UniProt Q9NYM4)",0.52
"ADRA1A (Homo sapiens, UniProt P35348)",0.79

# Block 3
# Compound: COc1cc(Nc2c(C#N)cnc3cc(OCCCN4CCN(C)CC4)c(OC)cc23)c(Cl)cc1Cl
# Effect on: enzyme activity
# Mode: inhibitor
# Concentration: 0.5 µM
# Baseline: control
target,remaining activity [%]
"TGFBR1 (Homo sapiens, UniProt P36897)",99
"PRKACA (Homo sapiens, UniProt P17612)",73.8
"IKBKB (Homo sapiens, UniProt O14920)",95.4
"STK10 (Homo sapiens, UniProt O94804)",12.6
"Cyclin-dependent kinase 5, with p25 (CDK5, Homo sapiens, UniProt Q00535)",95.9
"DAPK1 (Homo sapiens, UniProt P53355)",106
"Protein kinase C beta type, isoform beta-I (PRKCB, Homo sapiens, UniProt P05771)",99.8

# Mixed results
Compound,target or system,assay,test system,conditions,scale,enzyme activity
O=C(COc1ccc(Cl)cc1)NC1CCC(NC(=O)COc2ccc(Cl)cc2)CC1 (stereo not drawn),alpha-galactosidase (human),,healthy dermal fibroblasts,concentration not given,baseline: DMSO,125% and 98.9% and 129% and 123% and 107% and 99.1% and 95.5%
Cc1cccc(/C=N/Nc2cc(N3CCOCC3)nc(OCCc3ccccn3)n2)c1,L444P/L444P Gaucher fibroblasts,4-MUG hydrolysis in lysate,,"0.5 µM, 72 h, without ISRIB",baseline: vehicle,166% and 157% and 153% and 181% and 189% and 161% and 158% and 162%

# Some of these lines once more (block 1):
target,assay,remaining binding [%]
"Cyclin-dependent kinase 4, with cyclin D1 (CDK4, Homo sapiens, UniProt P11802)",cell-free assay,100
"MAP3K1 (Homo sapiens, UniProt Q13233)",cell-free assay,100
"CILK1 (Homo sapiens, UniProt Q9UPZ9)",binding,88
"Mast/stem cell growth factor receptor Kit, autoinhibited (KIT, Homo sapiens, UniProt P10721)",cell-free assay,100
"CDK13 (Homo sapiens, UniProt Q14004)",cell-free assay,100
